Results pooled from the literature.
Values joined by “and” are separate records of one study, mostly repeats; a detail may differ. Numbers after ± are the reported error.

O=C1NC2(CC2)COc2ncc(F)cc2[C@H]2COCCN2c2ccn3ncc1c3n2 — alkaline phosphatase activity (Sprague-Dawley rat, male, serum; oral, 2.5 mg/kg/day, 4 weeks daily, end of treatment): 145 ± 34.3 U/L
CSCC[C@H](N)C(=O)N[C@@H](C)C(=O)N[C@@H](CCCNC(=N)N)C(=O)N[C@@H](CCCNC(=N)N)C(=O)N[C@@H](CC(=O)O)C(=O)N[C@@H](CCCCN)C(=O)N[C@H](C(=O)N[C@@H](CC(=O)O)C(=O)N[C@@H](Cc1ccccc1)C(=O)N[C@@H](C)C(=O)N[C@@H](CCCNC(=N)N)C(=O)N[C@@H](CCCNC(=N)N)C(=O)N[C@@H](CCCNC(=N)N)C(=O)N[C@@H](CCCNC(=N)N)C(=O)NCCCCCC(=O)NCCCCC(NC(=O)CCCCCNC(=O)[C@H](CCCNC(=N)N)NC(=O)[C@H](CCCNC(=N)N)NC(=O)[C@H](CCCNC(=N)N)NC(=O)[C@H](CCCNC(=N)N)NC(=O)[C@H](C)NC(=O)[C@H](Cc1ccccc1)NC(=O)[C@H](CC(=O)O)NC(=O)[C@@H](NC(=O)[C@H](CCCCN)NC(=O)[C@H](CC(=O)O)NC(=O)[C@H](CCCNC(=N)N)NC(=O)[C@H](CCCNC(=N)N)NC(=O)[C@H](C)NC(=O)[C@@H](N)CCSC)[C@@H](C)O)C(=O)NCCCCC(NC(=O)C(CCCCNC(=O)CCCCCNC(=O)[C@H](CCCNC(=N)N)NC(=O)[C@H](CCCNC(=N)N)NC(=O)[C@H](CCCNC(=N)N)NC(=O)[C@H](CCCNC(=N)N)NC(=O)[C@H](C)NC(=O)[C@H](Cc1ccccc1)NC(=O)[C@H](CC(=O)O)NC(=O)[C@@H](NC(=O)[C@H](CCCCN)NC(=O)[C@H](CC(=O)O)NC(=O)[C@H](CCCNC(=N)N)NC(=O)[C@H](CCCNC(=N)N)NC(=O)[C@H](C)NC(=O)[C@@H](N)CCSC)[C@@H](C)O)NC(=O)CCCCCNC(=O)[C@H](CCCNC(=N)N)NC(=O)[C@H](CCCNC(=N)N)NC(=O)[C@H](CCCNC(=N)N)NC(=O)[C@H](CCCNC(=N)N)NC(=O)[C@H](C)NC(=O)[C@H](Cc1ccccc1)NC(=O)[C@H](CC(=O)O)NC(=O)[C@@H](NC(=O)[C@H](CCCCN)NC(=O)[C@H](CC(=O)O)NC(=O)[C@H](CCCNC(=N)N)NC(=O)[C@H](CCCNC(=N)N)NC(=O)[C@H](C)NC(=O)[C@@H](N)CCSC)[C@@H](C)O)C(N)=O)[C@@H](C)O (stereo partly drawn) — tissue distribution (C57BL/6 mouse female, skull; dose not given, 6 h; relative to: total): 9.78% and 15.9% and 16%
CC(C)[C@@H]1NC(=O)CNC(=O)[C@H](CC(N)=O)NC(=O)[C@H](CCCNC(=N)N)NC(=O)[C@H](Cc2ccc(O)cc2)NC(=O)[C@H](C(C)C)NC(=O)[C@@H](NC(=O)[C@@H](NC(=O)[C@H](CC(N)=O)NC(=O)[C@H](Cc2c[nH]c3ccccc23)NC(=O)[C@H](C)NC(=O)[C@H](Cc2ccccc2)NC(=O)CNC(=O)[C@H](CCCCN)NC(=O)[C@H](Cc2ccccc2)NC(=O)[C@H](Cc2ccccc2)NC(=O)[C@H](CCCCN)NC(=O)OCC2c3ccccc3-c3ccccc32)C(C)C)CSSC[C@@H](C(=O)N[C@@H](Cc2c[nH]cn2)C(=O)N[C@@H](CCCNC(=N)N)C(=O)N[C@@H](CCCNC(=N)N)C(=O)N[C@@H](C)C(=O)N[C@@H](CC(N)=O)C(N)=O)NC(=O)[C@H](C(C)C)NC(=O)[C@H](CCCNC(=N)N)NC1=O — phosphorus (ICR mice, serum; intraperitoneal, 5 mg/kg, day 5): 3.29 ± 0.17 mmol/L
C[C@H](O)[C@@H](NC(=O)[C@H]1CCCN1C(=O)[C@@H](CCCCN)NC(=O)[C@@H](CO)NC(=O)[C@@H](Cc1ccc(O)cc1)NC(=O)[C@@H](CC(N)=O)NC(=O)CCOCCOCCOCCNC(=O)CN1CCN(CC(=O)O)CCN(CC(=O)O)CCN(CC(=O)O)CC1)C(=O)N[C@H](CC(=O)O)C(=O)N[C@H](CCCNC(=N)N)C(=O)N[C@H](CCC(N)=O)C(=O)N[C@H](Cc1ccc(O)cc1)C(=O)N[C@H](Cc1c[nH]cn1)C(=O)N[C@H](Cc1ccccc1)C(N)=O [copper-64 labelled] — tissue uptake (C57BL/6J mice, muscle; intravenous, 1.85 MBq, 1 h, radiolabelled): 0.23 ± 0.16 %ID/g
O=C(c1cc(Cc2n[nH]c(=O)c3ccccc23)ccc1F)N1CC(CNC2CC2)C1 — haemoglobin (Wistar Han rat, male, blood; oral, 15 mg/kg daily, 4 weeks): 16.6 ± 0.7 g/dL
C=Cc1c(C)c2cc3nc(c(CC(=O)[O-])c4[n-]c(cc5nc(cc1[n-]2)C(C)=C5CC)c(C)c4C(=O)[O-])C(CCC(=O)[O-])C3C.[Cu+2].[Na+].[Na+].[Na+] (stereo not drawn) — blood urea nitrogen (Wistar rat, male; oral, 250 mg/kg daily, 28 days): 23.7 ± 2.42 mg/dL
CC[C@H](C)[C@H](NC(=O)[C@H](CCCCN)NC(=O)CNC(=O)[C@H](CC(C)C)NC(=O)[C@H](Cc1ccccc1)NC(=O)[C@H](CCCCN)NC(=O)[C@H](CO)NC(=O)[C@H](Cc1ccccc1)NC(=O)[C@H](Cc1c[nH]c2ccccc12)NC(=O)[C@H](CCC(N)=O)NC(=O)[C@@H](NC(=O)[C@H](Cc1ccccc1)NC(=O)CCCCCNC(=O)CN1CCN(CC(=O)O)CCN(CC(=O)O)CCN(CC(=O)O)CC1)C(C)C)C(=O)N[C@@H](CCC(=O)O)C(=O)N1CCC[C@H]1C(=O)N[C@@H](CC(=O)O)C(=O)N[C@H](C(=O)N[C@@H](CO)C(=O)N[C@@H](CCC(N)=O)C(=O)N[C@H](C(=O)N[C@@H](CCC(N)=O)C(=O)N[C@@H](CC(=O)O)C(=O)N1CCC[C@H]1C(=O)N[C@@H](CC(N)=O)C(=O)N[C@@H](CC(=O)O)C(=O)N[C@@H](CCC(N)=O)C(=O)N[C@@H](Cc1ccc(O)cc1)C(=O)N[C@@H](CCC(=O)O)C(=O)N1CCC[C@H]1C(=O)N[C@@H](Cc1ccccc1)C(=O)O)C(C)C)C(C)C [copper-64 labelled] — tissue uptake (GZMB-/- mice, CT26 tumour-bearing, large intestine; 2 h, checkpoint inhibitor-treated): 2.61 ± 0.5 %ID/g
CC(=O)N[C@H](C(=O)N[C@@H](CCCC(=O)OC(C)(C)C)C(=O)N[C@@H](CCC1CCCCC1)C(=O)N[C@@H](CC(=O)O)C(=O)COC(=O)c1c(C)cccc1C)C(C)(C)C — blood concentration (C57BL/6N mouse, female, whole blood; intraperitoneal, dose not given, 8 h): 183 µM and 309 µM
CC(C)C[C@@H](NC(=O)[C@@H](CCCNC(=N)N)NC(=O)[C@@H](Cc1c[nH]cn1)NC(=O)[C@@H](Cc1c[nH]c2ccccc12)NC(=O)[C@@H](Cc1c[nH]cn1)NC(=O)[C@@H](Cc1ccccc1)NC(=O)[C@H](NC(=O)[C@@H](Cc1ccc(O)cc1)NC(=O)CNC(=O)CNC(=O)CCOCCOCCOCCNC(=O)CN1CCN(CC(=O)O)CCN(CC(=O)O)CC1)[C@H](C)O)C(=O)N[C@H](CC(N)=O)C(=O)N1CCC[C@@H]1C(=O)O [gallium-68 labelled] — absorbed dose (human male, from C57BL/6 mouse, urinary bladder wall): 0.01 ± 5.77e-05 mSv/MBq
CC(C)=CCC/C(C)=C/CCn1cc(CC(P(=O)(O)O)P(=O)(O)O)nn1 — fraction unbound (equilibrium dialysis; mouse plasma; 10 µg/mL, 4 h): 0.038
COc1ccc([C@@H]2CC(=O)c3c(O)cc(O[C@@H]4O[C@H](CO)[C@@H](O)[C@H](O)[C@H]4O[C@@H]4O[C@@H](C)[C@H](O)[C@@H](O)[C@H]4O)cc3O2)cc1O — faecal excretion (Sprague-Dawley rat, male, obese, faeces; oral, 100 mg/kg, 0-12 h): 395 ± 166 ng
CCCCCCCCCCCCCCCC(=O)N[C@@H](CCC(=O)NCCOCCOCCC(=O)NCCOCCOCCC(=O)NCCCC[C@H](NC(=O)[C@H](CC(=O)O)NC(=O)[C@H](CC(C)C)NC(=O)[C@H](Cc1ccc(O)cc1)NC(=O)[C@H](CCCCN)NC(=O)[C@H](CO)NC(=O)[C@H](Cc1ccc(O)cc1)NC(=O)[C@H](CC(=O)O)NC(=O)[C@H](CO)NC(=O)[C@@H](NC(=O)[C@H](Cc1ccccc1)NC(=O)[C@@H](NC(=O)CNC(=O)[C@H](CCC(N)=O)NC(=O)[C@@H](CO)NC(=O)[C@@H](N)Cc1c[nH]cn1)[C@@H](C)O)[C@@H](C)O)C(=O)N[C@@H](CCCNC(=N)N)C(=O)N[C@@H](CCCNC(=N)N)C(=O)N[C@@H](C)C(=O)N[C@@H](CCC(N)=O)C(=O)N[C@@H](CC(=O)O)C(=O)N[C@@H](Cc1ccccc1)C(=O)N[C@H](C(=O)N[C@@H](CCC(N)=O)C(=O)N[C@@H](Cc1c[nH]c2ccccc12)C(=O)N[C@@H](CC(C)C)C(=O)N[C@@H](CC(C)C)C(=O)N[C@@H](CC(N)=O)C(=O)N[C@H](C(=O)NCC(=O)NCC(=O)N1CCC[C@H]1C(=O)N[C@@H](CO)C(=O)N[C@@H](CO)C(=O)NCC(=O)N[C@@H](C)C(=O)N1CCC[C@H]1C(=O)N1CCC[C@H]1C(=O)N1CCC[C@H]1C(=O)N[C@@H](CO)C(N)=O)[C@@H](C)O)C(C)C)C(=O)O — creatinine (Sprague-Dawley rat, female; subcutaneous, 100 µg/kg once daily, 14 days): 27.6 ± 3 µmol/L

For quick reference, copied from above:
C=Cc1c(C)c2cc3nc(c(CC(=O)[O-])c4[n-]c(cc5nc(cc1[n-]2)C(C)=C5CC)c(C)c4C(=O)[O-])C(CCC(=O)[O-])C3C.[Cu+2].[Na+].[Na+].[Na+] (stereo not drawn) — blood urea nitrogen (Wistar rat, male; oral, 250 mg/kg daily, 28 days): 23.7 ± 2.42 mg/dL
CC(C)=CCC/C(C)=C/CCn1cc(CC(P(=O)(O)O)P(=O)(O)O)nn1 — fraction unbound (equilibrium dialysis; mouse plasma; 10 µg/mL, 4 h): 0.038
